# Assay results pooled from the literature.
# Compare with care: the assays were run in different laboratories.
# PFF0160c E182D: Dihydroorotate dehydrogenase (quinone), mitochondrial (PFF0160c, Plasmodium falciparum, UniProt Q08210, E182D)
# PFF0160c: Dihydroorotate dehydrogenase (quinone), mitochondrial (PFF0160c, Plasmodium falciparum, UniProt Q08210)
# CA1: Carbonic anhydrase 1 (CA1, Homo sapiens, UniProt P00915)
# Chain of UniProt P00915 (whole entry, looked up): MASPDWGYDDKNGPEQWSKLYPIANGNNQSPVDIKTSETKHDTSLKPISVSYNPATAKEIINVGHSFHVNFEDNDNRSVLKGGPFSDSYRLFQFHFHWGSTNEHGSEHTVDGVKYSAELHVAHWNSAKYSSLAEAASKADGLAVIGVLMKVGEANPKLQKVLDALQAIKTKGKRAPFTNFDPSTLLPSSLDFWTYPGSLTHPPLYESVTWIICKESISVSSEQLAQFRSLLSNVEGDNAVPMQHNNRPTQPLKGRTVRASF
# HTR2C: 5-hydroxytryptamine receptor 2C (HTR2C, Homo sapiens, UniProt P28335)
# Chain of UniProt P28335 (whole entry, looked up): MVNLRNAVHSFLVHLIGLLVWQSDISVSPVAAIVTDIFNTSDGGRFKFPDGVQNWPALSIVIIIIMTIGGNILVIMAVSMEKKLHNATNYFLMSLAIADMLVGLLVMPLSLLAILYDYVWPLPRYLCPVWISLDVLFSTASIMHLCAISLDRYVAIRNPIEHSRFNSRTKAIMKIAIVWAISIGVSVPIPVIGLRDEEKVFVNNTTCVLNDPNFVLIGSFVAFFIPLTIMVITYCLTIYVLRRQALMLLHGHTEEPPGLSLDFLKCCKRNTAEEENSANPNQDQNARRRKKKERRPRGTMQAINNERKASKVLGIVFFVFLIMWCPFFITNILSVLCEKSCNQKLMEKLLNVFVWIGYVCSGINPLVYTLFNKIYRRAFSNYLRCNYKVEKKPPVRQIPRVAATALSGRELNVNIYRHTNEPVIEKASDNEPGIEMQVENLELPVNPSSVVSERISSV
# Chain of UniProt Q96FL8 (whole entry, looked up): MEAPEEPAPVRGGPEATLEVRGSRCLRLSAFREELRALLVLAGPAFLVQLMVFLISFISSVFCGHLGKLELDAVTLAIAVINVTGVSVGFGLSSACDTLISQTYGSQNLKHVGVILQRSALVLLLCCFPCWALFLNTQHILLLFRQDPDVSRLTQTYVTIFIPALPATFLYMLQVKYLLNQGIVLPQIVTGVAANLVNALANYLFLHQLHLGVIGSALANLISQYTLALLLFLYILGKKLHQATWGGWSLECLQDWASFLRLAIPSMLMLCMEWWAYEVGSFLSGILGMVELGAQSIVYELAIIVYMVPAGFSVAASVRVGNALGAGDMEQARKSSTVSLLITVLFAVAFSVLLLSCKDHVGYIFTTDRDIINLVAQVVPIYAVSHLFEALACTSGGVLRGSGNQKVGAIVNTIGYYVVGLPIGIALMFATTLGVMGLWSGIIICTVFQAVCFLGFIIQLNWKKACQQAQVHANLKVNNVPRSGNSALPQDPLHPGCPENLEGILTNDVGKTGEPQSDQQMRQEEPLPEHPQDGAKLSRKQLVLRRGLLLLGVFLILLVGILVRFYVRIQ
# Chain of UniProt P55786 (whole entry, looked up): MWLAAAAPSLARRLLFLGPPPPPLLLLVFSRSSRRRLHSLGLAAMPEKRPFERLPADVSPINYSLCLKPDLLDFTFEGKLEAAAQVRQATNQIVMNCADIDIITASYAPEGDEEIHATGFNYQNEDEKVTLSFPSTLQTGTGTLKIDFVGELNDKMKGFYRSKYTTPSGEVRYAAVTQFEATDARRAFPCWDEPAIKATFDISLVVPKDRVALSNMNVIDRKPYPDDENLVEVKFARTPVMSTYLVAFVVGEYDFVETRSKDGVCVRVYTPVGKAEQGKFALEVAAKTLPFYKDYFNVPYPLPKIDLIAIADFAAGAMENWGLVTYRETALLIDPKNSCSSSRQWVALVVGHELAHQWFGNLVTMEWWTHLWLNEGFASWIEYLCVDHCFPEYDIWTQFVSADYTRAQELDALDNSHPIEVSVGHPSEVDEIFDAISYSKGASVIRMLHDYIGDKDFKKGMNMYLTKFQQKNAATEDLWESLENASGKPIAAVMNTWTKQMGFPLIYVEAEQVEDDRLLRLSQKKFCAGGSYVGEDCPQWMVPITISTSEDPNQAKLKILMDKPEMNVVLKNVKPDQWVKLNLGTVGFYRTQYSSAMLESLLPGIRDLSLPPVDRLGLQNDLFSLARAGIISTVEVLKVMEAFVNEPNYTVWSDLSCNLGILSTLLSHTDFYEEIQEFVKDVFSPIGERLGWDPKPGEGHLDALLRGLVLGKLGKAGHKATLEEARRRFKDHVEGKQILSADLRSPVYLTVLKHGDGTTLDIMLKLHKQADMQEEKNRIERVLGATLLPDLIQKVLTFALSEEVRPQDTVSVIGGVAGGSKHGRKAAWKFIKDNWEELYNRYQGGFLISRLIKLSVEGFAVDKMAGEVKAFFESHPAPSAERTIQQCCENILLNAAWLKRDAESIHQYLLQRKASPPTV
# Chain of UniProt P34968 (whole entry, looked up): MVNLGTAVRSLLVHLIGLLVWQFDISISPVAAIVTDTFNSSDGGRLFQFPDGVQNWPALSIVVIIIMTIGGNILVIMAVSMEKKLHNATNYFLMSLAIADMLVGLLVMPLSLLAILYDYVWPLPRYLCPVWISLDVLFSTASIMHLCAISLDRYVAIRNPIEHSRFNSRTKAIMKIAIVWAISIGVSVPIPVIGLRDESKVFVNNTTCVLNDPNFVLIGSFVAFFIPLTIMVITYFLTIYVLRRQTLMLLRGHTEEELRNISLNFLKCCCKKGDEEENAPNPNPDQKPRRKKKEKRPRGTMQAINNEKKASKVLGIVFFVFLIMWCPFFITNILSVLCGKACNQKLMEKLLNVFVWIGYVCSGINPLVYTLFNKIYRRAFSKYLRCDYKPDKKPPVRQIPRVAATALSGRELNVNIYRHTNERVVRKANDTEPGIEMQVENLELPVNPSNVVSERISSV
# Chain of UniProt O43570 (whole entry, looked up): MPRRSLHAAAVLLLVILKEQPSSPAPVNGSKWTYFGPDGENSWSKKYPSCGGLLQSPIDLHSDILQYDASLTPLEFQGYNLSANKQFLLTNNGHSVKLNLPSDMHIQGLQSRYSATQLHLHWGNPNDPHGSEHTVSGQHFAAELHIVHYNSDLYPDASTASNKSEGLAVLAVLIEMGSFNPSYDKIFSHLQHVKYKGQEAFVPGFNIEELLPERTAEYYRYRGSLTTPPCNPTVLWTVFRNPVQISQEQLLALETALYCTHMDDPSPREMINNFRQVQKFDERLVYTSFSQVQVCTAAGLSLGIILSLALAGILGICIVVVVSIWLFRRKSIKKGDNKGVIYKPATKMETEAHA
# Chain of UniProt P35363 (whole entry, looked up): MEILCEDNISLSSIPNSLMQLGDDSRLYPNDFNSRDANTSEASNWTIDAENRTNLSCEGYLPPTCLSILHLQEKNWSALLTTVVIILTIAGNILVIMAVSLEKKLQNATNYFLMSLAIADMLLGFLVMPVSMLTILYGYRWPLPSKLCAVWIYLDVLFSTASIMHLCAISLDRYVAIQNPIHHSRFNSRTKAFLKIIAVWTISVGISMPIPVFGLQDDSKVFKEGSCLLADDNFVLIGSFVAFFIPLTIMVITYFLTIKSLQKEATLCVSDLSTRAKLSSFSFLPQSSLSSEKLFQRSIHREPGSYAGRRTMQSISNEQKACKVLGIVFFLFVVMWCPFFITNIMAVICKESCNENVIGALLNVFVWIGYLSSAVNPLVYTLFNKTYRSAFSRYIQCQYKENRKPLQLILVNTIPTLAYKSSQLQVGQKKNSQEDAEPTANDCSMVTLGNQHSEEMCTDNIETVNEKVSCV
# Chain of UniProt Q8TD08 (whole entry, looked up): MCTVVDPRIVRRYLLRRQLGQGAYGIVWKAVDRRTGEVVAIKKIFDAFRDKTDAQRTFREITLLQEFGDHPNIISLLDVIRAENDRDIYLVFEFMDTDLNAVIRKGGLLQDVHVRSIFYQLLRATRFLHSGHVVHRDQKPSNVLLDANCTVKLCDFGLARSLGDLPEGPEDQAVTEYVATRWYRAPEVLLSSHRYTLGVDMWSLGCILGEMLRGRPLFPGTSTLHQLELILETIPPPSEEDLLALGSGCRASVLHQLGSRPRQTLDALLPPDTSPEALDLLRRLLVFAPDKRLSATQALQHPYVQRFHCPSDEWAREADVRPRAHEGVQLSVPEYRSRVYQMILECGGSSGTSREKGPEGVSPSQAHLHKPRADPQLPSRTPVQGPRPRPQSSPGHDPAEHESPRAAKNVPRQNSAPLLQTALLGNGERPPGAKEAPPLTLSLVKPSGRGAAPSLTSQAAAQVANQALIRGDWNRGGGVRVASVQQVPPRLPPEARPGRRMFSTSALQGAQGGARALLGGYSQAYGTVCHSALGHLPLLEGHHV
# Chain of UniProt O95551 (whole entry, looked up): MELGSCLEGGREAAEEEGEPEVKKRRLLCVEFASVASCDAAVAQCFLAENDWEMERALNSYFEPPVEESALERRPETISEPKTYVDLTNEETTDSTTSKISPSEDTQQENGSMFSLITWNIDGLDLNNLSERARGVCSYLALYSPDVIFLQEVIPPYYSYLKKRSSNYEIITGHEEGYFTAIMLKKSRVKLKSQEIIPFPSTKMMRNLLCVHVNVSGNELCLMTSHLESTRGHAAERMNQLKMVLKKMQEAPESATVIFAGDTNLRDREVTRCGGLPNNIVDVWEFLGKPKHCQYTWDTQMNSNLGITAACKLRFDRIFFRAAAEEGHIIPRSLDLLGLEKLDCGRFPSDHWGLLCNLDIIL
SMILES,target,observed,mode,technique,concentration,endpoint,result
Cc1nc2ccccc2n1[C@@H]1C[C@H]2CC[C@@H](C1)N2Cc1nccn1-c1ccccc1,PFF0160c E182D,enzyme activity,inhibitor,absorbance,,IC50,2.98 µM
COc1cc(CCNCc2ccccc2O)c(OC)cc1C#N,"Htr2c (Mus musculus, UniProt P34968)",G protein activation,agonist,BRET,,EC50,0.0288 µM
CC(=O)c1c(Cc2ccccc2Cl)c[nH]c1C,PFF0160c,enzyme activity,inhibitor,absorbance,,IC50,0.8 µM
COc1cc(CCNC(C)c2ccccc2)c(OC)cc1C#N (stereo not shown),"Htr2a (Mus musculus, UniProt P35363)",G protein activation,agonist,BRET,,EC50,0.14 µM
O=C(Nc1ccc2c(c1)C=CCP(=O)(O)O2)Nc1ccccc1Br,"CA12 (Homo sapiens, UniProt O43570)",enzyme activity,inhibitor,stopped-flow,,Ki,> 10 µM
CS(=O)(=O)c1ccc2nc(-c3ccccc3)c(Nc3ccc(C(=O)O)cc3)n2c1,"TDP2 (Homo sapiens, UniProt O95551)",enzyme activity,inhibitor,fluorescence,,IC50,80 µM
[2H]c1c([2H])c([C@]2([2H])CCCN2C(=O)C(C)(C)Oc2ccc3cn[nH]c3c2)c([2H])c([2H])c1C([2H])([2H])[2H],"MAPK15 (Homo sapiens, UniProt Q8TD08)",binding,,competition with immobilised ligand,1 µM,remaining binding,76%
CNC(C)Cc1ccc2c(c1)OCO2 (stereo not shown),"SLC47A1 (Homo sapiens, UniProt Q96FL8)",transporter uptake,inhibitor,,,IC50,6.9 µM
COc1cccc(NC(=O)Nc2ccc3c(c2)C=CCP(=O)(O)O3)c1,CA1,enzyme activity,inhibitor,stopped-flow,,Ki,> 10 µM
NCCc1ccc(Oc2ccc(O)cc2)c(I)c1,"Slc6a3 (Mus musculus, UniProt Q61327)",transporter uptake,inhibitor,radiometric,,IC50,1.4 µM
CCCn1c(O)nnc1SCC(=O)Nc1cc(C(F)(F)F)ccc1Cl,PFF0160c,enzyme activity,inhibitor,absorbance,,IC50,0.624 µM
Cc1ccc(C(=O)Nc2ccc3c(c2)C=CCP(=O)(O)O3)cc1,"CA2 (Homo sapiens, UniProt P00918)",enzyme activity,inhibitor,stopped-flow,,Ki,> 10 µM
"COc1cc(CCNC(C)c2ccccc2O)c(OC)cc1C#N (single isomer, unassigned; (+))",HTR2C,calcium signal,agonist,,,EC50,3.3 µM
CCc1cc2c(cc1CC)CC(NC[C@@H](O)c1ccc(O)c3[nH]c(=O)ccc13)C2,PFF0160c,enzyme activity,inhibitor,absorbance,,IC50,3.94 µM
COc1cc(CCNCc2ccccc2OC)c(OC)cc1Br,HTR2C,G protein activation,agonist,BRET,,EC50,0.00027 µM
CCOc1cccc(=O)c2c(C)n(Cc3ccc(Cl)cc3)c(C)c12,PFF0160c,enzyme activity,inhibitor,absorbance,,IC50,> 10 µM
O=C(Nc1ccc2c(c1)C=CCP(=O)(O)O2)c1cccs1,CA1,enzyme activity,inhibitor,stopped-flow,,Ki,> 10 µM
C=CCn1c(SCC(=O)Nc2cc(C)ccc2OC)nc2sc(C)cc2c1=O,PFF0160c E182D,enzyme activity,inhibitor,absorbance,,IC50,> 10 µM
CN(C)c1ncnc2c1ncn2[C@@H]1O[C@H](CCl)[C@@H](NC(=O)[C@@H](CSC(c2ccccc2)c2ccccc2)NC(=O)OC(C)(C)C)[C@H]1O,"Puromycin-sensitive aminopeptidase (Homo sapiens, UniProt P55786)",enzyme activity,inhibitor,fluorescence,,IC50,6.7 µM

# Excerpt of the above:
SMILES,target,observed,mode,technique,concentration,endpoint,result
CCCn1c(O)nnc1SCC(=O)Nc1cc(C(F)(F)F)ccc1Cl,PFF0160c,enzyme activity,inhibitor,absorbance,,IC50,0.624 µM
Cc1ccc(C(=O)Nc2ccc3c(c2)C=CCP(=O)(O)O3)cc1,"CA2 (Homo sapiens, UniProt P00918)",enzyme activity,inhibitor,stopped-flow,,Ki,> 10 µM
"COc1cc(CCNC(C)c2ccccc2O)c(OC)cc1C#N (single isomer, unassigned; (+))",HTR2C,calcium signal,agonist,,,EC50,3.3 µM
